Results from different studies.
Each numbered part is a random draw from the data of one study; scales do not carry over between parts.

Series 1 — technique: aptamer microarray, sandwich; form: DNA with 2'F-ANA; matrix: in vitro; tested at: 200 nM; added: Cy3 exosite-II aptamer, 400 nM; reading: higher = stronger binding; oligonucleotide: GGTTGGTGTGGTTGG
Target: Prothrombin, mature alpha-thrombin (F2, Homo sapiens, UniProt P00734)
Setting: whole 15-mer aptamer, many near background
| Modification | mean fluorescence intensity [a.u.] |
| --- | --- |
| 2'F-ANA at 1 2 4 5 6 8 10 14 | 46.2 |
| 2'F-ANA at 2 4 7 9 11 | 292 |
| 2'F-ANA at 1 2 3 4 5 6 9 12 13 | 68.2 |
| 2'F-ANA at 5 8 10 11 12 14 | 45.3 |
| 2'F-ANA at 2 4 7 9 10 12 | 162 |
| 2'F-ANA at 2 5 8 9 11 13 14 15 | 45.1 |
| 2'F-ANA at 1 2 5 6 7 9 11 12 13 | 172 |
| 2'F-ANA at 1 2 5 7 11 14 | 42.6 |
| 2'F-ANA at 2 3 5 7 8 10 13 | 87.4 |
| 2'F-ANA at 1 2 3 5 6 8 10 12 13 14 15 | 47.9 |
| 2'F-ANA at 6 7 9 11 13 | 324 |
| 2'F-ANA at 1 3 5 6 10 11 13 15 | 61.3 |
| 2'F-ANA at 4 7 8 10 11 | 90.4 |
| 2'F-ANA at 2 8 10 14 15 | 80.5 |
| 2'F-ANA at 1 3 11 13 14 15 | 83 |
| 2'F-ANA at 3 4 5 6 10 11 12 13 | 54.4 |
| 2'F-ANA at 1 8 10 11 12 15 | 67.4 |
| 2'F-ANA at 2 3 4 5 9 12 13 14 15 | 66.6 |
| 2'F-ANA at 2 3 6 7 10 12 | 430 |
| 2'F-ANA at 3 4 5 8 9 12 14 15 | 56.6 |
| 2'F-ANA at 3 4 5 8 11 14 15 | 63 |
| 2'F-ANA at 1 5 6 8 9 10 11 12 15 | 51.6 |
| 2'F-ANA at 1 3 5 6 10 12 13 14 | 46.3 |
| 2'F-ANA at 2 4 6 7 8 13 15 | 226 |

Series 2 — technique: RNA Bind-n-Seq; form: RNA; matrix: in vitro; tested at: 365 nM; relative to: no-protein control; reading: higher = stronger binding
Target: RNA binding protein fox-1 homolog 2, RRM domain, GST-SBP tag (RBFOX2, Homo sapiens, UniProt O43251-10, residues 100-194)
Setting: natural RNA segment, single round, ends assumed
Constant ends, left off below: GGGAGUUCUACAGUCCGACGAUC … UGGAAUUCUCGGGUGCCAA
Target sequence (chain): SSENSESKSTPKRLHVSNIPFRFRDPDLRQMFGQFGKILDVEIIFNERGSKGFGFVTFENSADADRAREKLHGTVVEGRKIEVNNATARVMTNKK
| Oligonucleotide | RBNS enrichment (R) |
| --- | --- |
| UAACCCAAACUCAGUGCAUUUUUUAAAAAUAGUUAAAAAUACAGGACAAGAACACUUGAACACACAGAACGGAGACUAUGCCUAGUGUAGGUUUUGCAGUUAAUGGCCUG | 0.744 |
| UUAGUAGCCACUAGACAACCACCCUUUCUGAAAGCAAACAGUGCUGCUCUUUAUUCCAGACAAGGCAGGAAAGUCUGAGUUGGGAGUGACAGUGGCUGGAGAGAAGCAGA | 0.375 |
| UCCCAUCCUGAUACAUCCUGAAGUAACACUGUUUUAAACUUUCUUAGUGCUGGAGUAAAAGGUCAAGUCCAACACCUGCCUUAAAUUUAAAUCAUGUGAUUUAUAGUUUU | 0.244 |
| AGGCAGUGCUGUUCUGCCCACCUACCCCUCUCCACCAGCCUACACUGCACCCUGGCUGGCAGGGGUGCUGCUGGCUGCUAGGGCCUAUACAAUGGAGGGCACCUCCUGUC | 0.619 |
| UGAUUUCAUCUUUGUUCCUAGAUGUACUCAUUUGAAUAGGUUUUGCGUUCAUUACUCAGCAGUGUAUAAAGCUAACCUUGAUAAUUUUACCUUUUGUUAAUUAUCUAAAU | 0.477 |
| CUGUGUCUGGUUAUGUUGUCUGCACUUUUAUGAAAUCACUACAAUAGGUCUGCAUUGGAAAUGACUAUUAAUUUGUAAAGAAGUAAGUUUUAUUAAACACUGUCUAGAAA | 1.11 |
| UCCAGCCUCUGCCUGUUACCCAGUUCCAAAGUCACUUCCACAUUUUGGGUAUUUCUUCAGCAGGUCCCAAUCUACUGGUACCAAUUUACUGUAUUAGUCCGUUUUCACGC | 0.408 |
| UGGAAAUAAUCUGCAUCUGUUAAACCUGCAGAAGUUUUUUAAUGCCACUUUAACACUAAUGCACUGACAGAUUCUAAAUAUUUUGUGAGAAAUGUUGAAAUGUUUAACCU | 0.397 |

Series 3 — technique: protein binding microarray; form: double-stranded DNA, one strand shown; matrix: in vitro; tested at: not given; relative to: not given; reading: higher = stronger binding
Target: Histone acetyltransferase KAT6A, winged helix 2, GST fusion (KAT6A, Homo sapiens, UniProt Q92794, residues 85-181)
Setting: 8-mer, flanks averaged, mean of 2 arrays, mostly near background
Construct (chain): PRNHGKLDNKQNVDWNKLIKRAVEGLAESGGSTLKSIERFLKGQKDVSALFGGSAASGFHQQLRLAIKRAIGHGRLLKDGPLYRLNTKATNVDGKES
| Oligonucleotide | E-score |
| --- | --- |
| TGACGCCA | -0.0807 |
| CTAGATCA | -0.137 |
| CGGTACAC | 0.0749 |
| CCATCAGG | -0.0324 |
| GGATTCCC | 0.00105 |
| CAATTGTC | -0.189 |
| CTAATTTC | 0.0212 |
| GTAACGAA | -0.0179 |
| CGATAAGA | -0.0386 |
| CTTGATCC | 0.122 |
| ACGCGCCT | -0.0358 |
| AGACATTA | -0.0661 |
| ATGATTAC | 0.0473 |
| CATTTCAA | -0.000835 |
| GGGTAGGA | -0.0127 |
| ACGGGGCA | -0.0343 |
| ATTGGCTC | 0.0505 |
| AGACGCCC | 0.0988 |
| ACTTACAG | -0.149 |
| ATCGCAAA | 0.117 |
| AAATGAAT | 0.0554 |
| AAGGGTCT | -0.296 |
| TAGACGAA | -0.0501 |
| AGGGGCCA | 0.00955 |
| TAAAATGA | 0.154 |

Series 4 — technique: protein-binding microarray; form: double-stranded DNA, one strand shown; matrix: in vitro; tested at: 250 nM; setting: 60-bp whole probe; added: salmon DNA 0.4 mg/ml; relative to: random background probes; reading: higher = stronger binding; constant ends, left off below: GCCTAGCAC … GTCTTGATTCGCTTGACGCTGCTG
Target: Interferon regulatory factor 5, full length, phosphomimetic (IRF5, Homo sapiens, UniProt Q13568-2, residues 1-514, K96S/S451D/S453D/S456D/S462D)
| Oligonucleotide | log fluorescence [z-score] |
| --- | --- |
| TTAGGTATCCTATTCCTTTAGTGCTAG | 0.268 |
| GACGGTTTCGGGCTCGGGACGTGCTAG | 4.54 |
| TTAGATATAGGGTATCGATTAGTGCTA | 2.17 |
| TTAGGTATCGGGACTGGGTAAGTGCTA | 1.82 |
| TTAGTTTTCGGACTGGGTTAGTGCTAG | 3.4 |
| CACCATCTAGTTCTGCTTTGGTGCTAG | 0.229 |
| TCAAATTAGTGTTTCCCACTGTGCTAG | 0.183 |
| TTAGATATCGGGTTCCGATTAGTGCTA | 2.24 |
| GTAGGTATCGGTCTCGGTTAGTGCTAG | 6.86 |
| GACGGACTGGGGTATGGGGACGTGCTA | -0.32 |
| TTAGGACTGGACGCTGGGTTAGTGCTA | -0.456 |
| GTCGGTATCCTTATCCTGACGTGCTAG | 0.254 |
| TTAGAGCTGGGGACTGGATTAGTGCTA | -0.447 |
| TTAGATCTCAGTATCGAATAGTGCTAG | 2.02 |
| TTAAGTTCCGGTTTCGGTTAGTGCTAG | 10.1 |
| GACGGACGGGGGTTTCGGGACGTGCTA | 2.84 |
| TTAGGACTGCTAATCCTTTAGTGCTAG | -0.213 |

For quick reference, copied from above (series 1):
| Modification | mean fluorescence intensity [a.u.] |
| --- | --- |
| 2'F-ANA at 1 2 4 5 6 8 10 14 | 46.2 |
| 2'F-ANA at 2 4 7 9 11 | 292 |
| 2'F-ANA at 1 2 3 4 5 6 9 12 13 | 68.2 |
| 2'F-ANA at 5 8 10 11 12 14 | 45.3 |
| 2'F-ANA at 2 4 7 9 10 12 | 162 |
| 2'F-ANA at 2 5 8 9 11 13 14 15 | 45.1 |
| 2'F-ANA at 1 2 5 6 7 9 11 12 13 | 172 |
| 2'F-ANA at 1 2 5 7 11 14 | 42.6 |
